Assay results collected from several papers.
Compare with care: the assays were run in different laboratories. ± gives the spread as reported.
Slc6a3: Sodium-dependent dopamine transporter (Slc6a3, Rattus norvegicus, UniProt P23977)
Sequence of UniProt P23977 (whole entry, looked up): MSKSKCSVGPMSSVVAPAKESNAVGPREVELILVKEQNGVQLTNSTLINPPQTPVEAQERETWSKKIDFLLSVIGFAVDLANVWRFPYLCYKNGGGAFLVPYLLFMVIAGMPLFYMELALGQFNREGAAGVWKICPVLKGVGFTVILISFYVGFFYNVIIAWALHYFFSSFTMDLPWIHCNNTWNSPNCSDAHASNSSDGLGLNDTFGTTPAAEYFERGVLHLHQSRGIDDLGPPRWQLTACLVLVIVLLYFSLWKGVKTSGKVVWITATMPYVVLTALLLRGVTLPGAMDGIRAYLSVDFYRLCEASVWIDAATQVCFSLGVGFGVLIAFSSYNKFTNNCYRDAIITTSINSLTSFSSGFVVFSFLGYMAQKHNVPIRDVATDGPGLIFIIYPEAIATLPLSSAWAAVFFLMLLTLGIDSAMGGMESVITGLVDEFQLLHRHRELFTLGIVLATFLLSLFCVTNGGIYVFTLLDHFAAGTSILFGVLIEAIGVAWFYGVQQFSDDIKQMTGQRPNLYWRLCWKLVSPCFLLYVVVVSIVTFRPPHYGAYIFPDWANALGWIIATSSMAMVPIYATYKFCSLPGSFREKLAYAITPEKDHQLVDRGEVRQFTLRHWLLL
Sequence of UniProt P51449 (whole entry, looked up): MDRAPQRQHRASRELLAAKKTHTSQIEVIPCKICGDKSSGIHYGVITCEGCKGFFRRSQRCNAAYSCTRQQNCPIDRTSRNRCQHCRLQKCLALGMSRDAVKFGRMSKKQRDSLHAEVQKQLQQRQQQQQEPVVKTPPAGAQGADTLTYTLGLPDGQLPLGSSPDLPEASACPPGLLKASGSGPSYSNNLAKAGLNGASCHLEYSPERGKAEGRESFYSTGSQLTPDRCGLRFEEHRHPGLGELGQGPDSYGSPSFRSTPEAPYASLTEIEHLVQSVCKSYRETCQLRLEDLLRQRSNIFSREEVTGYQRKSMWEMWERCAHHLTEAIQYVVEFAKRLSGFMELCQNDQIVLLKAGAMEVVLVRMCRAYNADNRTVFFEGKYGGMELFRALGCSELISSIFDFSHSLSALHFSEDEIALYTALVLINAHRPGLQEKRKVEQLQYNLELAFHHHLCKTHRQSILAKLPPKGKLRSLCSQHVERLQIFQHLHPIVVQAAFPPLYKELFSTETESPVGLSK
Sequence of UniProt P01116 (whole entry, unmodified, looked up): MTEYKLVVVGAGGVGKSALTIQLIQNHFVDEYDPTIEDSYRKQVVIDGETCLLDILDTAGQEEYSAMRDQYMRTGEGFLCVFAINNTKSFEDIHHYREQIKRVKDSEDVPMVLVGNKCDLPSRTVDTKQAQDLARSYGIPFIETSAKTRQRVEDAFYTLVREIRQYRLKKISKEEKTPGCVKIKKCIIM
Sequence of UniProt P05177 (whole entry, looked up): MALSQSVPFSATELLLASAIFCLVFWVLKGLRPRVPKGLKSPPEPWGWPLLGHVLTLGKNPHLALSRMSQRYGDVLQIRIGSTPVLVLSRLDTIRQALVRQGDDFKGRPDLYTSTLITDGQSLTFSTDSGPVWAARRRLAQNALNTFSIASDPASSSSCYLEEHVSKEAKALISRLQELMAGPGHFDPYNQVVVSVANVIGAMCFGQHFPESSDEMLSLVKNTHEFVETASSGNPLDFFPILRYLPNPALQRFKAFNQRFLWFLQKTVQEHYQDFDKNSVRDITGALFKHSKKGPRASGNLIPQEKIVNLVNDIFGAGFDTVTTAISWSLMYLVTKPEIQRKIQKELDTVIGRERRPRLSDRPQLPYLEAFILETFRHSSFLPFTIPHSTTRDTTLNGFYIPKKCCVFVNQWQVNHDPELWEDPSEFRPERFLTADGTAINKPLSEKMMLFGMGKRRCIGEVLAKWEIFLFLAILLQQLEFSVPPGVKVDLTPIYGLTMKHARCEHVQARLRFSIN
Sequence of UniProt Q05209 (whole entry, looked up): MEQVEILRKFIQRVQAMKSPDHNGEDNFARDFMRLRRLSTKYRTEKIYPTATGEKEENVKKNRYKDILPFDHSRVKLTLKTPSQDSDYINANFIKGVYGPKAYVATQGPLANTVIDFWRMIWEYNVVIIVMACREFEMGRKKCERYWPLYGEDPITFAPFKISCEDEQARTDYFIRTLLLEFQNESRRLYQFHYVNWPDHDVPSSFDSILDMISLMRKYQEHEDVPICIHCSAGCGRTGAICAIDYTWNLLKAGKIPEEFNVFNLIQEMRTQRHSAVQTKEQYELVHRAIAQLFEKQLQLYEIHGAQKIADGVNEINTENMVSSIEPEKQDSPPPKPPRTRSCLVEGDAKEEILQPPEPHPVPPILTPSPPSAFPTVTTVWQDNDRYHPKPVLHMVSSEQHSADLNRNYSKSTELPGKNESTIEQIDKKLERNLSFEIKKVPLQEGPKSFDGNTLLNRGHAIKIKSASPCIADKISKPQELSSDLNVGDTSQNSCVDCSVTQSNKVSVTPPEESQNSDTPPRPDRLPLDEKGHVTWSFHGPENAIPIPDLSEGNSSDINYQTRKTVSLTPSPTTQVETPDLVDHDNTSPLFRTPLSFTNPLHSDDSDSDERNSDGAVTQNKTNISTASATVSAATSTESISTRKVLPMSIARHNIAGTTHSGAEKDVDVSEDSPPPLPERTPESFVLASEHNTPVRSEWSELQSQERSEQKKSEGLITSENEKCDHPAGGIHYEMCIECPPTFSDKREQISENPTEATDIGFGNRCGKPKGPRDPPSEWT
Sequence of UniProt P9WMW7 (whole entry, looked up): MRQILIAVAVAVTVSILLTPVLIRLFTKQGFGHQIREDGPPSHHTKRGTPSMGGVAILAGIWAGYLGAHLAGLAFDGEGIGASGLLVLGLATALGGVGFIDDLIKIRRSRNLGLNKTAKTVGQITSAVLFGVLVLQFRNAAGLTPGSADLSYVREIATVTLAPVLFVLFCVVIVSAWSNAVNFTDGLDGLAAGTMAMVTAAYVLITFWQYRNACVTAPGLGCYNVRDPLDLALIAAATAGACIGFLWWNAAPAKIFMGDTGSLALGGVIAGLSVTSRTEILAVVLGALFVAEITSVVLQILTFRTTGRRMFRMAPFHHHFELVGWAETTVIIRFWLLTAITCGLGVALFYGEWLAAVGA
Sequence of UniProt P00374 (whole entry, looked up): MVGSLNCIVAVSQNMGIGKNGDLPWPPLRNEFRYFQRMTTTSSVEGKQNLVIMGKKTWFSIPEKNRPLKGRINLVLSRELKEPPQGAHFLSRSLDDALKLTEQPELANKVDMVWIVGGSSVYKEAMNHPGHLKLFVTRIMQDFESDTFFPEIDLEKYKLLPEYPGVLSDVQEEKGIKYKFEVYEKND
Sequence of UniProt P31645 (whole entry, looked up): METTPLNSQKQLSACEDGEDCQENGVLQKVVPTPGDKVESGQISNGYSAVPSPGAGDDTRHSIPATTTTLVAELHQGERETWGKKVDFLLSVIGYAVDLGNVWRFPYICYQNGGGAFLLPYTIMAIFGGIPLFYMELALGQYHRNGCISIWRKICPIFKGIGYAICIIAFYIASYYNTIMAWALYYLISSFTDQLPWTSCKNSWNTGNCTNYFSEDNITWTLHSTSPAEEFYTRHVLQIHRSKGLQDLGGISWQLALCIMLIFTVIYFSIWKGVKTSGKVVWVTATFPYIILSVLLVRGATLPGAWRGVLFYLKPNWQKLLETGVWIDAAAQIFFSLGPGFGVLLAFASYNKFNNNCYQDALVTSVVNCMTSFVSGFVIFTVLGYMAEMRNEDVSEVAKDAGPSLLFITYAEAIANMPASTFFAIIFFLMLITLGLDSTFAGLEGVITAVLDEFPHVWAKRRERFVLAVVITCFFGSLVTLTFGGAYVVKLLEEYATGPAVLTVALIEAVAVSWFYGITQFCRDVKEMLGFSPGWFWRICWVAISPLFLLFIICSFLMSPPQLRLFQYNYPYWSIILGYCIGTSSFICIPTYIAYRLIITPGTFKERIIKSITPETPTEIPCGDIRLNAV

| Compound | target | test | system | conditions | IC50 [µM] |
| --- | --- | --- | --- | --- | --- |
| C[N+](C)(C)CCc1c[nH]c2cccc(O)c12 | Slc6a3 | transporter uptake, inhibitor, radiometric |  |  | > 10 |
| CO[C@H]1[C@@H](O)[C@H](n2ccc(=O)[nH]c2=O)O[C@@H]1[C@@H](O[C@H]1OC(C(=O)N[C@H]2N=C(c3ccccc3)c3ccccc3NC2=O)=C[C@H](O)[C@@H]1O)C(N)=O | Phospho-N-acetylmuramoyl-pentapeptide-transferase (Mycobacterium tuberculosis, UniProt P9WMW7) | enzyme activity, inhibitor, HPLC |  |  | 0.095 |
| CCOC(=O)/C=C/[C@H](C[C@@H]1CCNC1=O)NC(=O)[C@@H]1[C@@H]2[C@H](CN1C(=O)[C@@H](NC(=O)C(F)(F)F)C(C)(C)C)C2(C)C | Replicase polyprotein 1a, main protease (Human coronavirus 229E, UniProt P0C6U2) | inhibitor, FRET |  |  | 0.29 ± 0.018 |
| Fc1ccccc1CCNCc1cccc(Cl)c1Cl | Sodium-dependent serotonin transporter (SLC6A4, Homo sapiens, UniProt P31645) | transporter uptake, inhibitor, radiometric |  |  | > 20 |
| COc1ccccc1N1C(=O)/C(=C/c2cccn2-c2ccc(O)cc2)C(=O)NC1=S | Nuclear receptor ROR-gamma (RORC, Homo sapiens, UniProt P51449) | reporter gene, inverse agonist, luciferase |  |  | 0.587 |
| NC1=NC2(CCCCC2)N(c2ccc(OCc3cn(CCCCOc4ccc5ccc(=O)oc5c4)nn3)cc2)C(N)=N1 | Dihydrofolate reductase (DHFR, Homo sapiens, UniProt P00374) | enzyme activity, inhibitor |  |  | 10.5 |
| Cc1[nH]c2cc(Cl)cc(Cl)c2c1CCN | GTPase KRas (KRAS, Homo sapiens, UniProt P01116, G12D) | enzyme activity, inhibitor |  |  | 1750 |
| Cc1ccccc1N1C(=O)/C(=C/c2ccc(OCc3cccc(C(=O)O)c3)cc2)C(=O)NC1=S | Tyrosine-protein phosphatase non-receptor type 12 (PTPN12, Homo sapiens, UniProt Q05209) | enzyme activity, inhibitor |  |  | > 100 |
| CCCCCc1cc(O)c2c(c1)OC(C)(C)C1CCC(C)=CC21 (single isomer, unassigned; (-)) | Cytochrome P450 1A2 (CYP1A2, Homo sapiens, UniProt P05177) | inhibitor | human, pooled liver microsomes | pH 7.4, with: phenacetin | 0.27 ± 0.11 |
| CCC[C@H](C(=O)c1ccccc1)N1CCCC1 | Slc6a3 | dopamine clearance, inhibitor, fast-scan cyclic voltammetry | rat striatal slices |  | 0.776 |

Repeated from above:
| Compound | target | test | system | conditions | IC50 [µM] |
| --- | --- | --- | --- | --- | --- |
| Cc1[nH]c2cc(Cl)cc(Cl)c2c1CCN | GTPase KRas (KRAS, Homo sapiens, UniProt P01116, G12D) | enzyme activity, inhibitor |  |  | 1750 |
